Experimental data collected from several papers.
Compare with care: the assays were run in different laboratories.

COc1ccc(-c2c(-c3ccc(C#N)c(F)c3)nc(N3CCC(N)CC3)n(C)c2=O)cc1F
patients with serious TEAE (refers to: cerebrovascular accident; human patients; oral, 60 mg, dose expansion): 0%

CCS(=O)(=O)Nc1ccc(Oc2ccc(F)cc2F)c(-c2cn(C)c(=O)c3[nH]ccc23)c1
patients with fatal adverse event (refers to: Pneumonia; human, relapsed/refractory AML; oral, dose not given, trial, with: alone or with venetoclax): 5%

NC(=O)[C@H]1CCN(c2ncnc(N)c2F)C[C@@H]1N1CCC[C@@H](Nc2cc(Cl)cc(C(F)(F)F)c2)C1=O
patients with leukocytosis (human patients; oral, dose not given, grade ≥3): 5%

Cn1cncc1-c1c(F)cncc1NC(=O)c1c(N)nn2cc(F)cnc12
patients grade ≥3 Platelet count decrease (human patients; oral, dose not given, all doses): 6%

O=C(c1ccc(F)c(F)c1Nc1ccc(I)cc1F)N1CC(O)([C@@H]2CCCCN2)C1
patients with SAE leading to withdrawal (human patients; oral, dose not given, dose escalation, suspension): 0%

Cc1cn([C@H]2O[C@@H](CO[P@@](=O)(N[C@@H](C)C(=O)OC(C)C)Oc3ccccc3)[C@H](O)[C@H]2F)c(=O)[nH]c1=O
patients with TEAE (refers to: Inflammation; human; 10 mg): 0%

C[C@]1(O)C[C@@](N)(c2ccc(-c3nc4n(c3-c3ccccc3)COc3ccncc3-4)cc2)C1
patients with AST increased (human, advanced or metastatic solid tumours; 16 mg once daily, phase I dose escalation): 0%

CCN(Cc1nc2c(N)nc3cc(-c4cc[nH]n4)ccc3c2[nH]1)C(C)=O
patients with treatment-related adverse event (human patients; intratumoral, dose not given): 91.7%

C[C@@H]1OC(=O)NN=C1c1ccc(-c2ccc(F)cc2)c(C(F)(F)F)c1
patients with adverse event (phase I trial, refers to: Diarrhoea worst grade 1; human patients; 20 mg loading then 1 mg daily): 0%

COc1ncnn2ccc(-c3cnc4nc(C)n(Cc5nnc([C@@H](C)F)o5)c4c3)c12
patients with nail discoloration (human; oral, dose not given, grade 5): 0%

Cn1ncc(-c2nc(N[C@H]3CC[C@H](N)CC3)ncc2Cl)c1CC1CC1
patients with adverse events (refers to: treatment-related Hypoxia grade 3 or higher; human patients phase I; dose not given): 3.2%

O=C([O-])CN1CCN(CC(=O)[O-])CCN(CC(=O)NCC2CCC(C(=O)N[C@@H](Cc3ccc4ccccc4c3)C(=O)NCCCC[C@H](NC(=O)N[C@@H](CCC(=O)O)C(=O)O)C(=O)O)CC2)CCN(CC(=O)[O-])CC1.[177Lu+3] (stereo partly drawn)
patients with mild GFR decrease (99mTc-DTPA plasma clearance; human; concentration not given): 69%

CN(C)C(=O)c1cc2cnc(Nc3ccc(N4CCNCC4)cn3)nc2n1C1CCCC1
patients with adverse event (refers to: Neutropenia, AESI; human, HR+/HER2− advanced breast cancer; oral, dose not given, grade 4, CTCAE v4.03): 11.6%

CCN(CCO)CCCC(C)Nc1ccnc2cc(Cl)ccc12 (stereo not drawn)
patients with adverse event (human, newly diagnosed glioblastoma; oral, 400 mg/dose, dry skin grade 1, with RT and TMZ): 14%

COc1c(C)cnc(Cn2cc(C#CCCOP(=O)(O)O)c3c(Cl)nc(N)nc32)c1C
patients with adverse event (refers to: fatigue; human, advanced solid tumours; concentration not given, at least possibly drug-related): 46%

Cn1nc(NS(C)(=O)=O)c2c(Cl)ccc(-n3c([C@H](Cc4cc(F)cc(F)c4)NC(=O)Cn4nc(C(F)F)c5c4C(F)(F)[C@@H]4C[C@H]54)nc4nc(OCCC(F)(F)F)ccc4c3=O)c21
patients with laboratory abnormality (refers to: LDL cholesterol grade 1 increase; human; 300 mg once daily, powder in bottle): 25%

CN[C@@H](C)C(=O)N[C@H]1CN(S(=O)(=O)c2cccc(S(=O)(=O)N3CC[C@H]4CC[C@@H](C(=O)NC(c5ccccc5)c5ccccc5)N4C(=O)[C@@H](NC(=O)[C@H](C)NC)C3)c2)CC[C@H]2CC[C@@H](C(=O)NC(c3ccccc3)c3ccccc3)N2C1=O
patients with treatment-related asthenia (human, advanced solid tumours; 45 mg): 20%

CCN1[C@@H](C(=O)NC23CCC(C(=O)O)(CC2)CC3)[C@H](c2cccc(Cl)c2F)[C@]2(C(=O)Nc3cc(Cl)ccc32)C12CCCCC2
patients with adverse event (refers to: any-grade treatment-related nausea or vomiting; human, advanced solid tumours; oral, dose not given, phase I, all patients): 57.1%

CNC(=O)c1cc(Oc2ccc(NC(=O)Nc3cc(C(C)(C)C)nn3-c3ccc4ncccc4c3)c(F)c2)ccn1
patients with related serious Vomiting AE (human, trial; oral, dose not given, all doses): 2%

O=C1Nc2cc3[nH]nc(-c4ccncc4)c3cc2CN1Cc1ccccc1
patients with QTc prolongation (CTCAE v4.03; human, relapsed or refractory advanced solid tumours; intravenous, 9.6 mg/kg, pooled schedules): 44%

C=CC(=O)Nc1cc(Nc2nccc(Nc3cc(Cl)c(F)cc3C(C)(C)O)n2)c(OC)cc1N1CC[C@@H](N(C)C)C1
patients with rash (human patients; oral, 100 mg, treatment-emergent adverse events): 22.2%

A few entries again:
CCN(CCO)CCCC(C)Nc1ccnc2cc(Cl)ccc12 (stereo not drawn)
patients with adverse event (human, newly diagnosed glioblastoma; oral, 400 mg/dose, dry skin grade 1, with RT and TMZ): 14%

COc1c(C)cnc(Cn2cc(C#CCCOP(=O)(O)O)c3c(Cl)nc(N)nc32)c1C
patients with adverse event (refers to: fatigue; human, advanced solid tumours; concentration not given, at least possibly drug-related): 46%
